Assay results of several laboratories.
Each numbered part is a random draw from the data of one study; scales do not carry over between parts.
Chain of UniProt Q15418 (whole entry, looked up): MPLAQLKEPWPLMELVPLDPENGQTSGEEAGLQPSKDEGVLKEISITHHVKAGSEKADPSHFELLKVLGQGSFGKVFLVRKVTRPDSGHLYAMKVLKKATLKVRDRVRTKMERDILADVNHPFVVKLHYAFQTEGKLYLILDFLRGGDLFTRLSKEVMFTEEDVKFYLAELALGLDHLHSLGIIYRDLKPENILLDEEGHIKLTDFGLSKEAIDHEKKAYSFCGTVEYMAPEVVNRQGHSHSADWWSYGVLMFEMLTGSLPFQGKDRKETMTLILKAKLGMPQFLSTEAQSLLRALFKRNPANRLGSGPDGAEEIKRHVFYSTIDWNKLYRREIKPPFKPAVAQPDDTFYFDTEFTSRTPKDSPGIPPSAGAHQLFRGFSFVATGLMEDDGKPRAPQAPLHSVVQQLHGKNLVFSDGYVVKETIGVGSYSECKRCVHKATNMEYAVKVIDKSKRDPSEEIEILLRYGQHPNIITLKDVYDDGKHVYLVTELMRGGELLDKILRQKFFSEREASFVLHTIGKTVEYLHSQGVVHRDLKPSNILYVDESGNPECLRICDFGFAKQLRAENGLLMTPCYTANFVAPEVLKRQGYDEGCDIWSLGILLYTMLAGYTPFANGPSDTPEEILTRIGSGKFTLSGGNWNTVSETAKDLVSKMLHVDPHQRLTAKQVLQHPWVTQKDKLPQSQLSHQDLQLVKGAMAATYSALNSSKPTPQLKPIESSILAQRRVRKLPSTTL
Chain of UniProt P54646 (whole entry, looked up): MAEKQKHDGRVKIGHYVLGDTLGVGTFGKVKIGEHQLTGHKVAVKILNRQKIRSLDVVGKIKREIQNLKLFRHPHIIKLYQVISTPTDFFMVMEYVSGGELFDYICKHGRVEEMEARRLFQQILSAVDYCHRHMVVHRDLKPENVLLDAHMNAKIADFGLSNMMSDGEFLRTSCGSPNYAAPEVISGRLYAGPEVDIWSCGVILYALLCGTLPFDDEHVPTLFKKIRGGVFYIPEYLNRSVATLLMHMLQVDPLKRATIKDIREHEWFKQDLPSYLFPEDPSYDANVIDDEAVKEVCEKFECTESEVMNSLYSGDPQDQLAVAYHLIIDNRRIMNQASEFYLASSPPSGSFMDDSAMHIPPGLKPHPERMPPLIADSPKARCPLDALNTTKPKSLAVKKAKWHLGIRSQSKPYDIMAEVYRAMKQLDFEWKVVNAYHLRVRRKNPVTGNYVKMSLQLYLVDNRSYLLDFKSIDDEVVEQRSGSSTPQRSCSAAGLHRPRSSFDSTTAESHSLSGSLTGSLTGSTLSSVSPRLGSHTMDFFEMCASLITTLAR
Chain of UniProt Q9BYT3 (whole entry, looked up): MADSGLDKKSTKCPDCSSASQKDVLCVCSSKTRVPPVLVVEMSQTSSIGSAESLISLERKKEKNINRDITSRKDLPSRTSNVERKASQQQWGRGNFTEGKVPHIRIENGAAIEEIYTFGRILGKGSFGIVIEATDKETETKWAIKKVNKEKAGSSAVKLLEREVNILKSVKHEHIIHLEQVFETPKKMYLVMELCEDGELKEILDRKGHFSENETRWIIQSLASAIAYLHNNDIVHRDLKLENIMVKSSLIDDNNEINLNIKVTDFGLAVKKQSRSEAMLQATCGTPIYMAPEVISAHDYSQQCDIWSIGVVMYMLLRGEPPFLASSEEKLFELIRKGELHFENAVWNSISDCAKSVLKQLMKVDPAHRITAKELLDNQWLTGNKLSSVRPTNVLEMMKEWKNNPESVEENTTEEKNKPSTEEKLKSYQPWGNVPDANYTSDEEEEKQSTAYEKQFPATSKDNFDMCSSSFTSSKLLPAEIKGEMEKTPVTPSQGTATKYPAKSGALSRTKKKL

Block 1
Structure (SMILES): COc1cc(C(=O)N2CCC(N3CCN(C)CC3)CC2)ccc1Nc1ncc2c(n1)N(C)c1ccccc1C(=O)N2C
Effect on: probe labelling
It gave 1.2% for inhibition (FER (human); KiNativ ATP probe; human PBMC lysate; concentration not given, LYS1 labelled site).
It gave -4.6% for inhibition (mouse PCTAIRE1/2/3; KiNativ ATP probe; mouse brain lysate; 0.1 µM, LYS2 site DLkPQNLLINER).
EGFR (mouse); KiNativ, refers to: IPVAIkELR peptide, LYS1 site; brain tissue lysate (mouse); 0.1 µM, added: ATP acyl-phosphate probe — inhibition: -3.9%.
It gave 7.6% for inhibition (NEK1 (mouse); KiNativ, refers to: DIkSQNIFLTK peptide, LYS2 site; brain tissue lysate (mouse); 1 µM, added: ADP acyl-phosphate probe).
NDR1 (mouse); KiNativ, refers to: DTGHVYAMkILR peptide, LYS1 site; brain tissue lysate (mouse); 0.1 µM, added: ADP acyl-phosphate probe — inhibition: 3.6%.

Block 2
Target: DNA polymerase theta, helicase domain (POLQ, Homo sapiens, UniProt O75417)
Chain of UniProt O75417 (whole entry, looked up): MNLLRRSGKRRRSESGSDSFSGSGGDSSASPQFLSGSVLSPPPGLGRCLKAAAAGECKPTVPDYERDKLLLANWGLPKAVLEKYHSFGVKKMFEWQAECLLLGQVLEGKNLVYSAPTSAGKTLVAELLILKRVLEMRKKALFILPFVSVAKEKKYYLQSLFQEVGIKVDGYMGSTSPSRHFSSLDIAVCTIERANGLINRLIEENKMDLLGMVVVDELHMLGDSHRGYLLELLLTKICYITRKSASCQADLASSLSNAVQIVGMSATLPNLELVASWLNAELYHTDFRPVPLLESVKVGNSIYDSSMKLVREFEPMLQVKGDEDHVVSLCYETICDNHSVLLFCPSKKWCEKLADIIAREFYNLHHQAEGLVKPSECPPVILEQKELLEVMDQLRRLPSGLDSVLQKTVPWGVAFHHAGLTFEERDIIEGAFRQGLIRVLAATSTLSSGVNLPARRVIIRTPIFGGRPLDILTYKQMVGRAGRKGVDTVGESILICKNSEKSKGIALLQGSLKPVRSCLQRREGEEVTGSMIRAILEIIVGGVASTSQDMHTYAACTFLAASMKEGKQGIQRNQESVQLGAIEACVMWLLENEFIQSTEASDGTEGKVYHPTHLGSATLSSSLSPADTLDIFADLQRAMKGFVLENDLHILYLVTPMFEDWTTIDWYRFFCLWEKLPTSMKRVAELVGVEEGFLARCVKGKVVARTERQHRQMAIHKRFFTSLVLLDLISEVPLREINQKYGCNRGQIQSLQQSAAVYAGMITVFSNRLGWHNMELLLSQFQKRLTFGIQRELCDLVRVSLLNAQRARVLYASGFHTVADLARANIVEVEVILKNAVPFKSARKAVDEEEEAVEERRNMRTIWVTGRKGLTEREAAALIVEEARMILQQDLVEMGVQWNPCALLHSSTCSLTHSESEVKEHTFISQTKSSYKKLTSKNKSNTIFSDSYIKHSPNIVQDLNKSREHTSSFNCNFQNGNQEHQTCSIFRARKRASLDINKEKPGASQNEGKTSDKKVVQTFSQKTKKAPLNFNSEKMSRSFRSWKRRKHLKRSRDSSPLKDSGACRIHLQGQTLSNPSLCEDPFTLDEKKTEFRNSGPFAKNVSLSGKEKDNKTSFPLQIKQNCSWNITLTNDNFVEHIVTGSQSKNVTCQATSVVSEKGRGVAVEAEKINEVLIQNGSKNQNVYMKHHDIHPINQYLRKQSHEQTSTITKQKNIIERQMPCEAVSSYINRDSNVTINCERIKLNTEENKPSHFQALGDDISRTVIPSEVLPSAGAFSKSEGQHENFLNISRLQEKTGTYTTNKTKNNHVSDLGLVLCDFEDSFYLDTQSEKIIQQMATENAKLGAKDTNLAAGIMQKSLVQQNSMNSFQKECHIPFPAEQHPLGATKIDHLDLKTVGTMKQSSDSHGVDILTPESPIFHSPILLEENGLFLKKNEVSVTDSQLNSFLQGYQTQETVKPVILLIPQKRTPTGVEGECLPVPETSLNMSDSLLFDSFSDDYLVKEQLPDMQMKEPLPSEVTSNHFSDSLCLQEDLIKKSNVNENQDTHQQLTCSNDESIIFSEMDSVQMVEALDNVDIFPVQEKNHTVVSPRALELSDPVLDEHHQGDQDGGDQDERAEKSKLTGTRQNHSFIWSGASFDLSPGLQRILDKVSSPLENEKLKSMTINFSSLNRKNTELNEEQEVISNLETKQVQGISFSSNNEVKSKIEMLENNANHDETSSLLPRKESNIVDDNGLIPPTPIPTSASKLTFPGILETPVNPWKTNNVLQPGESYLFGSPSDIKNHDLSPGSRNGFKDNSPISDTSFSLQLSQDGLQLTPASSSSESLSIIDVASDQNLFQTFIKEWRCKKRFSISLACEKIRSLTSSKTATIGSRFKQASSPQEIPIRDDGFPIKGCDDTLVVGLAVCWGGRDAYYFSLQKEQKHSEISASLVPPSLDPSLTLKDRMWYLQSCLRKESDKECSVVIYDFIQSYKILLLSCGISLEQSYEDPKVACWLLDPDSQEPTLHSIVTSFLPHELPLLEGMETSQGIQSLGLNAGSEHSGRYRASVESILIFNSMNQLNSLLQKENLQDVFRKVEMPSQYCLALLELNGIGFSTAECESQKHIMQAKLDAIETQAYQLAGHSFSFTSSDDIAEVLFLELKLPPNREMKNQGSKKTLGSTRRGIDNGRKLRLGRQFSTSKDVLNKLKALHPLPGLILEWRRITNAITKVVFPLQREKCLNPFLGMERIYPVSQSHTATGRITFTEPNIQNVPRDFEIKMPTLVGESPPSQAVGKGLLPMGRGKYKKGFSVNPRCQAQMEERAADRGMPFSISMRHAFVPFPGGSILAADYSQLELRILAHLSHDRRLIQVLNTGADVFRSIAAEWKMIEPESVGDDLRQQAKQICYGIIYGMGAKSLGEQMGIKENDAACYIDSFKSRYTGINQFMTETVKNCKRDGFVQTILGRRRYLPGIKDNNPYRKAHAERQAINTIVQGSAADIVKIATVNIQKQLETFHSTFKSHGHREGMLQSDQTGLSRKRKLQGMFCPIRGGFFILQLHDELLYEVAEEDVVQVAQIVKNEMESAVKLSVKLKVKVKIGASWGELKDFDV
Mode: inhibitor
Concentration: concentration not given
Notes: absolute value
Added: with minus without ssDNA
Under “difference in remaining activity”, `COc1cccc2c1C(=O)c1c(O)c3c(c(O)c1C2=O)C[C@@](O)(C(=O)CO)C[C@@H]3O[C@H]1C[C@H](N)[C@@H](O)[C@H](C)O1` is recorded as 51.3%.
`O=C(O)c1cccnc1Nc1cccc(C(F)(F)F)c1` — result for “difference in remaining activity”: 25.6%.
`COc1cc(NC(=O)CSc2ncc(S(=O)(=O)c3ccc(Br)cc3)c(=O)[nH]2)cc(OC)c1`: “difference in remaining activity” 16.7%.

Block 3
Cell line: HaCaT
Concentration: 100 µM
Time: 36 h
`C[n+]1ccccc1/C=N/O` gave a viability of 92.7%.
`CN1CCN(c2c(F)cc3c(=O)c(C(=O)O)cn(CCF)c3c2F)CC1` has a viability of 87.5%.
`CCOC(=O)C1=C[C@@H](OC(CC)CC)[C@H](NC(C)=O)[C@@H](N)C1` gave a viability of 97.8%.
For `COc1cc(/C=C/C(=O)O)ccc1O`, the viability was 87.9%.
With `CO[C@@H]1[C@@H](O[C@@H]2O[C@H](C)[C@@H](O[C@H]3C[C@@](C)(O)[C@@H](O)[C@H](C)O3)[C@H](N(C)C)[C@H]2O)[C@@H](CC=O)C[C@@H](C)[C@@H](O[C@H]2CC[C@H](N(C)C)[C@@H](C)O2)/C=C/C=C/C[C@@H](C)OC(=O)C[C@H]1OC(C)=O` the viability was 91.7%.
With `Cc1c(NC(=O)c2cccnc2)c(=O)n(-c2ccccc2)n1C` the viability was 90.5%.

Block 4
Host: human
Medium: microsomes or S9
Concentration: 2 µM
Time: 0.5 h
The remaining compound of `COCCN(CC(=O)N1N=C(c2ccccc2F)CC1c1cccs1)C(=O)CC(C)(C)C` (stereo not drawn) is reported as 9%.
`Cc1ccc(-c2ccc(C(CN3CCCC3)N(C)C(=O)CN3C(=O)COc4cc(Cl)c(Cl)cc43)cc2)cn1` (stereo not drawn) has a remaining compound of 60.6%.
`CCn1nc(C)c(CNC(=O)NCCCOC)c1C` gave a remaining compound of greater than 99%.
With `Cc1cc(Oc2ccc(-n3cncn3)cc2)nc(C)n1` the remaining compound was 78.4%.

Block 5
Target: Calcium/calmodulin-dependent protein kinase type II subunit alpha (CAMK2A, Homo sapiens, UniProt Q9UQM7)
Chain of UniProt Q9UQM7 (whole entry, looked up): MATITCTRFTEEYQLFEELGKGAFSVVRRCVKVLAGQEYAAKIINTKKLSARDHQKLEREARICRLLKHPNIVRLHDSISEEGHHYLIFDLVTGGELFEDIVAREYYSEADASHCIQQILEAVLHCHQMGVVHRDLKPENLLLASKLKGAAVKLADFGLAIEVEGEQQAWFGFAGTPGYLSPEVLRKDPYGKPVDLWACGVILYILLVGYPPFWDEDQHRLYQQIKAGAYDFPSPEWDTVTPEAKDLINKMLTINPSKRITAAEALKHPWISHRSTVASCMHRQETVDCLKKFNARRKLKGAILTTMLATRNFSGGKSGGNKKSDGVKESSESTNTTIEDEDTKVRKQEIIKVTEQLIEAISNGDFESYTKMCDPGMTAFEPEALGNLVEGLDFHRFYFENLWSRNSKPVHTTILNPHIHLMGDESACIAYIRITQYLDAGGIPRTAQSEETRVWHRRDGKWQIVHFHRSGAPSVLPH
Effect on: enzyme activity
Mode: inhibitor
Concentration: 10 µM
With `CC[N+](C)(C)Cc1ccccc1Br` the inhibition was -5%.
For `COc1cc(O)cc(CCc2ccc(O)c(OC)c2)c1`, the inhibition was -24%.
The inhibition of `C[N+](C)(C)CCOP(=O)(O)OP(=O)([O-])OC[C@H]1O[C@@H](n2ccc(N)nc2=O)[C@H](O)[C@@H]1O` is reported as 12%.

Block 6
Compound: COc1cc(-c2cn(C3CCc4c(F)cccc4N(CC(F)(F)F)C3=O)nn2)ccc1-n1cnc(C)c1 (stereo not drawn)
Effect on: cell-free assay
Technique: competition with immobilised ligand
Concentration: 1 µM
It gave 100% for remaining binding (FYN (Homo sapiens, UniProt P06241)).
The remaining binding was 100% (PHKG2 (Homo sapiens, UniProt P15735)).
For MAST1 (Homo sapiens, UniProt Q9Y2H9): remaining binding read 100%.
It gave 81% for remaining binding (Ribosomal protein S6 kinase alpha-1, N-terminal kinase domain (RPS6KA1, Homo sapiens, UniProt Q15418)).
It gave 90% for remaining binding (STK26 (Homo sapiens, UniProt Q9P289)).
PRKAA2 (Homo sapiens, UniProt P54646) — remaining binding: 100%.
It gave 100% for remaining binding (MST1R (Homo sapiens, UniProt Q04912)).
The remaining binding was 100% (TAOK2 (Homo sapiens, UniProt Q9UL54)).
For MAP2K3 (Homo sapiens, UniProt P46734): remaining binding read 100%.
PHKG1 (Homo sapiens, UniProt Q16816) — remaining binding: 78%.
For MAP3K2 (Homo sapiens, UniProt Q9Y2U5): remaining binding read 94%.
For WNK2 (Homo sapiens, UniProt Q9Y3S1): remaining binding read 53%.
NTRK1 (Homo sapiens, UniProt P04629) — remaining binding: 81%.
CLK3 (Homo sapiens, UniProt P49761) — remaining binding: 83%.
For MARK3 (Homo sapiens, UniProt P27448): remaining binding read 100%.
It gave 100% for remaining binding (STK33 (Homo sapiens, UniProt Q9BYT3)).
It gave 100% for remaining binding (TBK1 (Homo sapiens, UniProt Q9UHD2)).
For ROS1 (Homo sapiens, UniProt P08922): remaining binding read 100%.
The remaining binding was 100% (PAK3 (Homo sapiens, UniProt O75914)).
CDK8 (Homo sapiens, UniProt P49336) — remaining binding: 100%.
For PIK3CA (Homo sapiens, UniProt P42336, C420R): remaining binding read 75%.
The remaining binding was 100% (HUNK (Homo sapiens, UniProt P57058)).
It gave 100% for remaining binding (ACVR1 (Homo sapiens, UniProt Q04771)).
The remaining binding was 100% (STK25 (Homo sapiens, UniProt O00506)).
For NEK9 (Homo sapiens, UniProt Q8TD19): remaining binding read 100%.

Block 7
Organism: Sarcocystis neurona
Effect on: parasite growth
Concentration: 10 µM
Time: 96 h
Notes: first screen
Reference: untreated
`C[C@H](CCC(=O)O)[C@H]1CC[C@H]2[C@@H]3[C@@H](O)C[C@@H]4C[C@H](O)CC[C@]4(C)[C@H]3CC[C@]12C` — result for “log2 fold change”: 0.41.
`CCCN1CCCC[C@H]1C(=O)Nc1c(C)cccc1C`: “log2 fold change” -0.11.
Under “log2 fold change”, `COc1cc(C)c(/C=C/C(C)=C/C=C/C(C)=C/C(=O)O)c(C)c1C` is recorded as 0.47.
Under “log2 fold change”, `Nc1nc(N)c2nc(-c3ccccc3)c(N)nc2n1` is recorded as 0.57.
`C[C@H]1O[C@H](O[C@H]2[C@H](O)[C@@H](O)[C@@H](O[C@H]3[C@H](O)[C@@H](O)C(O)O[C@@H]3CO)O[C@@H]2CO)[C@H](O)[C@@H](O)[C@@H]1N[C@H]1C=C(CO)[C@@H](O)[C@H](O)[C@H]1O` (stereo partly drawn) — result for “log2 fold change”: 0.33.

Some of these lines once more (block 6):
The remaining binding was 100% (TAOK2 (Homo sapiens, UniProt Q9UL54)).
For MAP2K3 (Homo sapiens, UniProt P46734): remaining binding read 100%.
PHKG1 (Homo sapiens, UniProt Q16816) — remaining binding: 78%.
For MAP3K2 (Homo sapiens, UniProt Q9Y2U5): remaining binding read 94%.
For WNK2 (Homo sapiens, UniProt Q9Y3S1): remaining binding read 53%.
NTRK1 (Homo sapiens, UniProt P04629) — remaining binding: 81%.
CLK3 (Homo sapiens, UniProt P49761) — remaining binding: 83%.
For MARK3 (Homo sapiens, UniProt P27448): remaining binding read 100%.
It gave 100% for remaining binding (STK33 (Homo sapiens, UniProt Q9BYT3)).
